Experimental data of several laboratories.
Numbered parts are unrelated; each lists some results of a single study. Values joined by “and” are separate records of one study, mostly repeats; a detail may differ.

Block 1
Compound: CC(C)S(=O)(=O)c1ccc2nccc(Nc3ccc4sc(C5CCCC5)nc4c3)c2c1.Cl
Method: CCK-8
| cell line | concentration | added | survival |
| --- | --- | --- | --- |
| L929 RIPK3-/- reexpressing RIPK3 K51A/R69H | 12.5 µM | zVAD | 85% and 95.7% and 95.5% and 79.9% |
| L929 RIPK3-/- reexpressing RIPK3 K51A/R69H | 3.125 µM | zVAD | 93.7% and 99.1% and 96.3% and 88.5% and 95.9% |
| L929 RIPK3-/- reexpressing RIPK3 K51A | 25 µM | zVAD | 88.6% and 84% and 109% and 84.9% |
| L929 RIPK3-/- reexpressing RIPK3 K51A/R69H | 1.563 µM | zVAD | 95.6% and 101% and 89.3% and 86.3% |
| L929 RIPK3-/- reexpressing RIPK3 K51A/R69H | 6.25 µM |  | 101% and 93.7% and 80.4% and 92.2% |

Block 2
Cell line: HEK-293T/ACE2
Concentration: 10 µM
Time: 16 h
Baseline: vehicle
| Compound | viability [%] |
| --- | --- |
| NC(=O)N[C@@H](CCC(=O)O)C(=O)O | 99.4 |
| C#C[C@]1(O)CC[C@H]2[C@@H]3CCc4cc(O)ccc4[C@H]3CC[C@@]21C | 86.2 |
| CCn1cc(C(=O)O)c(=O)c2cc(F)c(N3CCNC(C)C3)c(F)c21 (stereo not drawn) | 101 |
| CN(C)CCC=C1c2ccccc2CCc2ccccc21 | 100 |
| CN1CC(=O)N2[C@H](c3ccc4c(c3)OCO4)c3[nH]c4ccccc4c3C[C@@H]2C1=O | 99.1 |
| C[C@]12CCC(=O)C=C1[C@@H]1C[C@@H]1[C@H]1[C@@H]3[C@@H]4C[C@@H]4[C@@]4(CCC(=O)O4)[C@@]3(C)CC[C@@H]12 | 98.3 |
| CC(=O)N[C@@H](CS)C(=O)O | 103 |
| Cc1cccc(C)c1NC(=O)C1CCCCN1C (stereo not drawn) | 100 |
| CO/N=C(\C(=O)N[C@@H]1C(=O)N2C(C(=O)O)=C(COC(C)=O)CS[C@H]12)c1csc(N)n1 | 103 |
| Cc1cn([C@H]2C[C@H](N=[N+]=[N-])[C@@H](CO)O2)c(=O)[nH]c1=O | 100 |
| Nc1ccc(/N=N/c2ccccc2)c(N)n1 | 105 |
| Cn1cc[nH]c1=S | 101 |
| CC(=O)c1ccc(S(=O)(=O)NC(=O)NC2CCCCC2)cc1 | 98.1 |
| OC(CCCN1CCCCC1)(c1ccccc1)c1ccccc1 | 102 |

Block 3
Organism: Sarcocystis neurona
Read-out: parasite growth
Concentration: 10 µM
Time: 96 h
Setting: second screen
Baseline: untreated
| Structure (SMILES) | log2 fold change |
| --- | --- |
| CN1CCCC(n2nc(Cc3ccc(Cl)cc3)c3ccccc3c2=O)CC1 (stereo not drawn) | -2.67 |
| CCN(C(C)=O)c1cccc(-c2ccnc3c(C#N)cnn23)c1 | 0.52 |
| Cc1ncc2n1-c1ccc(Cl)cc1C(c1ccccc1F)=NC2 | 0.19 |
| C[C@]12CCC(=O)C=C1CC[C@@H]1[C@@H]2CC[C@@]2(C)[C@H]1CC[C@]2(C)O | -0.18 |
| C=C1C[C@@H]2[C@H](CC[C@]3(C)C(=O)CC[C@@H]23)[C@@]2(C)C=CC(=O)C=C12 | 0.3 |
| CCCC(C)(COC(N)=O)COC(=O)NC(C)C (stereo not drawn) | 0.41 |
| O=c1[nH]cc(F)c(=O)[nH]1 | -1.3 |
| CC(NC(C)(C)C)C(=O)c1cccc(Cl)c1 (stereo not drawn) | 0.01 |
| Oc1c(Cl)cc(Cl)c2cccnc12 | -4.61 |
| CC(C)N(CCC(C(N)=O)(c1ccccc1)c1ccccn1)C(C)C (stereo not drawn) | 0.55 |
| O=C1CN=C(c2ccccc2)c2cc([N+](=O)[O-])ccc2N1 | 0.42 |
| c1ccc2c3c([nH]c2c1)CNCC3 | 0.64 |

Block 4
Cell line: A-375
Concentration: 100 µM
Time: 36 h
| SMILES | viability |
| --- | --- |
| C[C@@H]1CC[C@H]2[C@@H](C)C(=O)O[C@@H]3O[C@@]4(C)CC[C@@H]1[C@]32OO4 | 101% |
| N#Cc1nn(-c2c(Cl)cc(C(F)(F)F)cc2Cl)c(N)c1[S+]([O-])C(F)(F)F (stereo not drawn) | 14.8% |
| CC(NC(C)(C)C)C(=O)c1cccc(Cl)c1 (stereo not drawn) | 84.8% |
| CC(C)N(CCC(C(N)=O)(c1ccccc1)c1ccccn1)C(C)C (stereo not drawn) | 93.8% |
| Cn1c(CCCC(=O)O)nc2cc(N(CCCl)CCCl)ccc21 | 101% |
| CNC(=O)Oc1ccccc1OC(C)C | 103% |
| NCC(CC(=O)O)c1ccc(Cl)cc1 (stereo not drawn) | 88% |
| CC(C)N(CCNC(=O)CN1CCCC1=O)C(C)C | 68.2% |

A few entries again (block 2):
| Compound | viability [%] |
| --- | --- |
| CC(=O)N[C@@H](CS)C(=O)O | 103 |
| Cc1cccc(C)c1NC(=O)C1CCCCN1C (stereo not drawn) | 100 |
| CO/N=C(\C(=O)N[C@@H]1C(=O)N2C(C(=O)O)=C(COC(C)=O)CS[C@H]12)c1csc(N)n1 | 103 |
| Cc1cn([C@H]2C[C@H](N=[N+]=[N-])[C@@H](CO)O2)c(=O)[nH]c1=O | 100 |
